Assay results gathered from unrelated publications.
Compare with care: the assays were run in different laboratories. Values joined by “and” are separate records of one study, mostly repeats; a detail may differ.

`COc1cc([C@@H]2c3cc4c(cc3[C@@H](O[C@@H]3O[C@@H]5CO[C@@H](C)O[C@H]5[C@H](O)[C@H]3O)[C@H]3COC(=O)[C@H]23)OCO4)cc(OC)c1O`: “spheroid surface area reduction” 9.51% (HepG2 spheroids; planimetry; 17 µM, 96 h; baseline: solvent control).
`O=C(C[C@@H](C(F)F)n1ccc(F)n1)N1CCC(O)(Cn2cnc3c(cnn3-c3ccc(F)cc3)c2=O)CC1`: “G2/M phase cells” 13.2% (CHP-212 resistant; PI flow cytometry; 0.3 µM, 24 h).
For `N#CSc1cc(SC#N)c(N)nc1N`, the inhibition was 88.7% (BT-16; cell viability, MTT; 10 µM, 72 h).
`CC(C)(c1ccc(O)cc1)c1ccc(O)cc1`: “cell cycle distribution” “no effect” (HepG2 spheroids; flow cytometry; concentration not given, 24 h).
`CC(C)n1c(/C=C/C(O)CC(O)CC(=O)O)c(-c2ccc(F)cc2)c2ccccc21` (stereo not drawn) gave an inhibition of 92.9% (BT-16; cell viability, MTT; 10 µM, 72 h).
`CCc1c(-c2ccccc2)c(-c2ccccc2)nn1-c1ccccc1-c1cccc(OCC(=O)O)c1` has a normalized response of 88.5% and 85.3% and 117% and 105% and 96.5% and 78.8% (mouse bone marrow macrophages; osteoclast differentiation, inhibitor, TRAP staining; 0.03 µM, together with: M-CSF and RANKL).
For `Cl.Cl.NCCNS(=O)(=O)c1ccc(Cl)c2ccncc12`, “relative cell number” read 98.8% (SK-OV-3; ATP; 3D gellan gum culture; 10 µM, 4 days; baseline: untreated).
`C[C@H]1[C@@H](O)O[C@@H]2O[C@@]3(C)CC[C@H]4[C@H](C)CC[C@@H]1[C@@]24OO3`: “early apoptotic cells” 2.5% (THP-1; annexin V/PI flow cytometry, item: annexin V+/PI-; 3.2 µM, 24 h).
`CSc1cc(Oc2ccnc3[nH]c(=O)cnc23)ccc1NC(=O)Nc1cc(C(C)(C)C)nn1-c1ccccc1` gave a phospho ratio of 0.73 (patient-derived cell line clone B; RPPA, item: phosphorylated HER3; human; 1 µM, 4 h; baseline: DMSO).
`COc1cnc2cccc(N3CCc4c(cc(Cn5ccnc5C)cc4-c4cn(C)nc4C(F)(F)F)C3=O)c2c1` has an EC50 of greater than 30000 nM (Granta-519; cell growth, inhibitor; 120 h).
`Nc1ncnc2c1ncn2[C@@H]1O[C@H](CO)[C@@H](O)[C@H]1O` has a viability of 84.8 a.u. and 77.4 a.u. and 83.1 a.u. (unstimulated human T cells; 1 µM, 72 h; higher = more viable cells).
The cytotoxicity of `Cc1ccc(CNC(=O)Cn2cc(CSc3nc4ccccc4[nH]3)nn2)cc1` is reported as 87.6% (MDA-MB-231; MTT; 31.3 ppm).
`CCc1cccc(CC)c1NC(=O)N1Cc2n[nH]c(NC(=O)c3ccc(N4CCN(C)CC4)cc3)c2C1` has an inhibition of 89.5% (BT-16; cell viability, MTT; 10 µM, 72 h).
Under “log2 fold change”, `O=c1[nH]nc(OCCCc2ccc(Cl)cc2)c(NCc2cccnc2)c1Br` is recorded as -0.0172 (HEK293T; RNA-seq, item: HSPD1 mRNA; 10 µM, 6 h; baseline: vehicle).
Under “nitric oxide production decrease”, `CC1(C)Oc2ccc(CC3=C(c4ccc(O)cc4)C(=O)NC3=O)cc2C[C@@H]1O` is recorded as roughly 18% (RPTEC; Griess; 10 µg/mL, 24 h, together with: LPS 1 µg/mL; baseline: LPS-treated cells).
`CCc1cnc(N2CCC(c3nc(COc4ccc(-n5cnnn5)cc4)cs3)CC2)nc1` — result for “normalized enrichment score”: -1.08 (HEK-293T; RNA-seq GSEA, item: HALLMARK_ESTROGEN_RESPONSE_LATE; concentration not given; direction not given).
`C[C@H](Nc1ccc2c(c1)OCCn1cc(N3C(=O)OC[C@H]3C(F)F)nc1-2)C(N)=O` — result for “Hill coefficient GR curve”: 1.3 (BFTC-909; cell growth, CellTiter-Glo; 120 h).
`Cn1cc(-c2ccc(-c3cncc(Cl)c3N3CCC4(CCNC4=O)CC3)cc2)cn1` — result for “log2 fold change”: 3.08 (COLO 205; gene expression, microarray, item: G0S2 mRNA; concentration not given, 6 h; baseline: untreated cells).
`CC(C)NCC(O)c1ccc(O)c(O)c1` (stereo not drawn) gave a sarcomere length of 1.73 µm (mouse ventricular cardiomyocytes; dose not given, 0.427 s).
`C=CC(=O)Nc1cc(Nc2nccc(-c3cn(C)c4ccccc34)n2)c(OC)cc1N(C)CCN(C)C` has a mRNA level of roughly 1.5 fold (PC-9; item: PIK3CA; 8 µM, 24 h; baseline: control).
For `CCN(CC)Cc1cc(Nc2ccnc3cc(Cl)ccc23)ccc1O`, autophagy flux read “inhibited” (N27 rat dopaminergic cells; dose not given, 36 h).
For `CC(C)c1nc(CN(C)C(=O)N[C@H](C(=O)N[C@@H](Cc2ccccc2)C[C@H](O)[C@H](Cc2ccccc2)NC(=O)OCc2cncs2)C(C)C)cs1`, the maximal efficacy was 97% (ΔE-expressing cells; ΔE mislocalization, high-content imaging).
`COC(=O)[C@]12CCC(C)(C)C[C@H]1[C@H]1C(=O)C=C3[C@@]4(C)C=C(C#N)C(=O)C(C)(C)[C@@H]4CC[C@@]3(C)[C@]1(C)CC2` has an inhibition of 91.6% (BT-16; cell viability, MTT; 10 µM, 72 h).
For `Nc1nc2ccn(CCCc3ccc(C(=O)N[C@@H](CCC(=O)O)C(=O)O)cc3)c2c(=O)[nH]1`, the IC50 ratio was 14 fold (HCT-116 Tet-On SHMT2 Y105F vs WT; cell proliferation; 8 days, together with: doxycycline; baseline: WT over Y105F).
`COc1ccc(NC(=S)N/N=C/c2cccc3cc4ccccc4nc23)cc1` — result for “late apoptotic cells”: 9.78% (HeLa; annexin V/PI; concentration not given, 48 h, dosed at IC50, together with: N-acetylcysteine).
For `Cc1cc(Nc2ncc(Cl)c(Nc3ccccc3S(=O)(=O)C(C)C)n2)c(OC(C)C)cc1C1CCNCC1`, “log2 fold change” read -4.85 (CLB-BAR; phosphoproteomics LC-MS/MS, item: MAPK3 phosphorylation; 200 nM, 60 min; baseline: untreated).
`Cn1cc(Nc2nccc(-c3ccc4c(c3)CN(C3COC3)CC[C@H]4NC(=O)c3cn(C(C)(C)C)nn3)n2)cn1`: “pathway activation z-score” 2 (mouse splenic B cells; item: Histamine degradation; 30 mg/kg, IgD-activated in vivo; baseline: vehicle, direction not given).
With `O=C(/C=C/C=C/C=C/C1CCCCC1)NC1=C[C@@](O)(/C=C/C=C/C=C/C(=O)NC2=C(O)CCC2=O)[C@@H]2O[C@@H]2C1=O` the GI50 was 9720 nM (SUM185PE; cell growth, CellTiter-Glo; 78 h).
With `Cc1ccc(S(=O)(=O)/C=C/C#N)cc1` the inhibition was 93.2% (BT-16; cell viability, MTT; 10 µM, 72 h).
`C=CCn1c(=O)c2cnc(Nc3ccc(N4CCN(C)CC4)cc3)nc2n1-c1ccc2c(n1)[C@@](O)(CC)CC2`: “G2/M phase cells” 45.1% (NCI-H1048; flow cytometry; concentration not given).
For `COc1cc(-c2nncn2C)ccc1Nc1ncc2ccnc(NCC(C)(C)C)c2n1`, the GI50 was 12 nM (CAL-51; cell growth; 72 h).
Under “log2 fold change”, `CCCCc1nc(Cl)c(CO)n1Cc1ccc(-c2ccccc2-c2nn[nH]n2)cc1` is recorded as 1.83 (human PBMC; RNA-seq, item: PTGS2 mRNA; 10 µg/mL, 24 h; baseline: untreated control).
`COc1cc([C@@H]2c3cc4c(cc3[C@@H](O[C@@H]3O[C@@H]5CO[C@@H](c6cccs6)O[C@H]5[C@H](O)[C@H]3O)[C@H]3COC(=O)[C@H]23)OCO4)cc(OC)c1O` has an inhibition of 89.6% (BT-16; cell viability, MTT; 10 µM, 72 h).
The viability of `CC(=O)Nc1cccc(-n2c(=O)n(C3CC3)c(=O)c3c(Nc4ccc(I)cc4F)n(C)c(=O)c(C)c32)c1` is reported as 19% (SK-MEL-239 (BRAF V600E); 0.05 µM, 72 h).
`O=C1c2c(O)ccc(O)c2C(=O)c2c(NCCNCCO)ccc(NCCNCCO)c21` gave an inhibition of 91.2% (BT-16; cell viability, MTT; 10 µM, 72 h).
The GI50 of `CCOc1cc(-c2nnc3n2CCC3)ccc1Nc1ncc2cc(C)nc(NCC(C)(C)C)c2n1` is reported as 600 nM (CAL-51; cell growth; 72 h).
